Measurements from different studies.
± marks the error that the study gave. Bridges are numbered along the chain shown (N, C = ends). Where no end group is shown, it is not given here.

For `CC(C)[C@@H]1NC(=O)[C@@H]2Cc3ccc(cc3)O[C@H]3C[C@H](NC3=O)C(=O)N3CCC[C@H]3C(=O)N[C@@H](Cc3ccc(O)cc3)C(=O)N[C@@H](C(=O)N[C@@H](C(C)C)C(=O)N2)c2cc(ccc2O)C[C@@H](C(=O)O)NC1=O`, “LV fractional shortening” read “increased” (echocardiography; ICR mice, doxorubicin heart failure; intraperitoneal, 100 mg/kg daily, day 28).
`C[C@@H]1COCCN1c1cc([C@]2(O)C[C@H]3CC[C@@H](C2)O3)c2cnn(-c3cc[nH]n3)c2n1` has a fold induction of 2.7 (measured: phospho-DNA-PKcs; mouse, LoVo xenograft, tumour; 7 mg/kg daily for 7 days, 24 h after last dose; relative to: background).
`CN(Cc1cc(Br)cc(Br)c1N)C1CCCCC1` has a prostate weight of 5.2 ± 0.6 g (TRAMP mice; ip, 30 mg/kg three times weekly, 20 weeks from week 15; relative to: vehicle).
`CS/C(S)=N/CCCC[S+](C)[O-]` (racemic): “mRNA fold change” 1.71 (RT-PCR, measured: Gckr; rat, liver; oral gavage, 200 mg/kg, 96 h, dosed for four days; relative to: vehicle).
`CC(C)Cc1ccc(C(C)C(=O)O)cc1` (stereo not shown) gave a pain threshold of 65.3 ± 2.4 g (paw pressure test; rat, CFA arthritis; oral, 100 mg/kg, day 14 after CFA).
Under “plasma glucose AUC(0-6 h)”, `insulin glulisine` is recorded as 738 mg·h/dL (obese type 2 diabetes patients; subcutaneous, 0.2 U/kg, before standard meal).
`O=C(CCc1cccc(O)c1)N1CCN(Cc2ccc(F)cc2)CC1` gave a pigmentation inhibition of 6.83 ± 5.4% (zebrafish AB wild type, head melanin; 60 µM, 45 h, from 6 hpf).
For `Cc1cc(C)c(/C=C2\C(=O)Nc3ccccc32)[nH]1`, the tumour area was 4.6 cm² (MRI, enhancing lesion; human; concentration not given, 5.3 months).
`CILDLPKFC (disulfide 1-9 (inferred)) (disulfide)`: “peptide-specific B cells” over 60% (flow cytometry; human, follicular lymphoma biopsy cells; concentration not given).
For `COc1ccc(Nc2c(-c3ccc(S(C)(=O)=O)cc3)nc3c(C)cccn23)cc1`, “pain score AUC” read “decreased” (formalin test; male Wistar rat; intraperitoneal, 40 mg/kg; relative to: control group).
`insulin lispro`: “total glucose infused” 364 mg/kg (euglycemic clamp; obese type 2 diabetes patients; subcutaneous, 30 units).
`CC(C)C[C@H](NC(=O)[C@H](CO)NC(=O)[C@H](CCCNC(=N)N)NC(=O)[C@H](CC(=O)O)NC(=O)[C@H](CCC(=O)O)NC(=O)[C@H](C)NC(=O)[C@@H]1CCCN1C(=O)[C@H](C)NC(=O)[C@H](CCC(=O)O)NC(=O)[C@@H]1CCCN1C(=O)[C@@H]1CCCN1)C(N)=O` — result for “reduction of rotation”: 35% (F344 rat, unilateral 6-OHDA lesion; intranasal, 300 µg daily, 4 weeks after lesion, together with: d-amphetamine 2.5 mg/kg i.p.; relative to: vehicle).
`COc1cccc2c1C(=O)c1c(O)c3c(c(O)c1C2=O)C[C@@](O)(C(=O)CO)C[C@@H]3O[C@H]1C[C@H](N)[C@H](O)[C@H](C)O1` has a tumour volume of 57 ± 18.7 mm3 (mouse, T47D xenograft; 5 mg/kg once weekly for 2 weeks, day 10 after inoculation, started after 2 weeks growth).
`COc1ccc(Nc2c(-c3ccc(S(C)(=O)=O)cc3)nc3cccc(C)n23)cc1` — result for “pain score AUC”: “decreased” (formalin test; male Wistar rat; intraperitoneal, 40 mg/kg; relative to: control group).
Under “plasma recalcification time”, `Cn1c(-c2ccc(Br)s2)nc2cc(-c3nnc(-c4cc(-c5cc(F)cc(F)c5)nc5ccccc45)o3)ccc21` is recorded as 460 s (human platelet-poor plasma; concentration not given).
For `Ac-CSNLSTCXLGRLSQDLHRLQTYPKTDVGANAP-NH2 (N-acetyl, C-amide)`, plasma insulin read “increased” (peptide, ZDF rats; 1.5 nmol/kg daily, 8 weeks; relative to: vehicle).
`GKWHCTTKFPHHYCLYG (disulfide 5-14 (inferred)) (cyclic, disulfide)` has a fluorescence intensity of 1.95 fold (β2-AR transgenic mouse, right ventricle lysate; intravenous, 0.5 mg/kg, 4 h; relative to: nontransgenic mice).
For `CCOC(=O)c1cnc2[nH]ccc2c1N[C@@H]1CCCN(C(=O)CC#N)C1`, the inhibition was 83% (measured: CCL8 mRNA; pig, skin; topical, 2% solution, 3 h, together with: intradermal IL-15; relative to: vehicle).
With `Fc1ccc2[nH]c(-c3ccc(OCc4ccccc4)cc3)nc2c1` the IC50 was 1640 nM (ABTS scavenging, absorbance).
Under “corrected calcium AUC(0-t)”, `teriparatide` is recorded as 27.6 mmol·h/L (healthy women, serum; subcutaneous, 20 µg, single dose).
Under inhibition, `TDVDHVFARF-NH2 (C-amide)` is recorded as “inactive” (gut contraction; Drosophila melanogaster adult, isolated gut; 1 µM, up to 10 min; relative to: DMS).
Under “increase in contraction force”, `C[C@@H]1CC(=O)NN=C1c1ccc(N)cc1` is recorded as 265 ± 62 mg (guinea pig papillary muscle; up to 30 µM, together with: forskolin 0.1 µM; relative to: baseline).
The IL-6 release of `Polymyxin B` is reported as 8.4 ± 4.5% (human whole blood; 500 ng/mL, 4 h, 37 °C, together with: E. coli LPS 0.5 ng/mL; relative to: LPS without compound).
For `Cc1ccc(NC(=O)c2ccc(CN3CCN(C)CC3)cc2)cc1Nc1nccc(-c2cncc(-c3oncc3C)c2)n1`, “MDS-UPDRS part III score” read 41 ± 18.3 (mild-to-moderate Parkinson's disease patients; oral, 100 mg once daily, pre-dose baseline, practically defined OFF state; direction not given).
`insulin degludec` — result for “AUC(GIR) mean estimate”: 2830 mg/kg (euglycaemic clamp; healthy human subjects; subcutaneous, abdomen, 0.4 U/kg, 0 to 24 h).
For `O=C1[C@H](CC[C@H](O)c2ccc(F)cc2)[C@@H](c2ccc(O)cc2)N1c1ccc(F)cc1`, the LDL-C change was 9.7% (human; dose not given, 10 days; relative to: baseline, decrease).
`CC1(C)C(/C=C/C2=C(Oc3ccc(CCC(=O)N[C@H]4CSSC[C@@H](C(=O)O)NC(=O)[C@H](CC(=O)O)NC(=O)[C@@H]5CCCN5C(=O)CNC(=O)[C@H](CCCCN)NC(=O)[C@H](CC(=O)O)NC(=O)CNC(=O)[C@H](CCCNC(=N)N)NC4=O)cc3)C(=C/C=C3/N(CCC[N+](C)(C)C)c4ccc(S(=O)(=O)O)cc4C3(C)C)/CCC2)=[N+](CCC[N+](C)(C)C)c2ccc(S(=O)(=O)O)cc21`: “fluorescence decay rate at tumour boundary” 368 cm⁻¹ (fluorescence imaging; C57BL/6 mice, orthotopic LLC lung tumour; 10 nmol, 24 h).
For `CCCCc1nc(Cl)c(CO)n1Cc1ccc(-c2ccccc2-c2nn[nH]n2)cc1`, the vessel diameter was 97 ± 3% (isolated rat cremaster arterioles; 10 µM, together with: post-immune serum 1:100; relative to: baseline).
